Assay results pooled from the literature.
Compare with care: the assays were run in different laboratories. “And” joins repeats or separate records; there may be more than shown. ± marks the error that the study gave.
CD38: ADP-ribosyl cyclase/cyclic ADP-ribose hydrolase 1 (CD38, Homo sapiens, UniProt P28907)
Sequence of UniProt P28907 (whole entry, looked up): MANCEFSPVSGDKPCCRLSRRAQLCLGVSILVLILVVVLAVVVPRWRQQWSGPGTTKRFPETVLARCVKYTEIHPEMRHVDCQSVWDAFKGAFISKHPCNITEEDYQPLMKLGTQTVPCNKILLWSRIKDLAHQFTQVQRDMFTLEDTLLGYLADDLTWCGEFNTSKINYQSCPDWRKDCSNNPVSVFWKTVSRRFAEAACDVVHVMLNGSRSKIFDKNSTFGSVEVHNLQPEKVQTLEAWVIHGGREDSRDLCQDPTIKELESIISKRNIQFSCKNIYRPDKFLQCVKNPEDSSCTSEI
NTSR1: Neurotensin receptor type 1 (NTSR1, Homo sapiens, UniProt P30989)
Sequence of UniProt P30989 (whole entry, looked up): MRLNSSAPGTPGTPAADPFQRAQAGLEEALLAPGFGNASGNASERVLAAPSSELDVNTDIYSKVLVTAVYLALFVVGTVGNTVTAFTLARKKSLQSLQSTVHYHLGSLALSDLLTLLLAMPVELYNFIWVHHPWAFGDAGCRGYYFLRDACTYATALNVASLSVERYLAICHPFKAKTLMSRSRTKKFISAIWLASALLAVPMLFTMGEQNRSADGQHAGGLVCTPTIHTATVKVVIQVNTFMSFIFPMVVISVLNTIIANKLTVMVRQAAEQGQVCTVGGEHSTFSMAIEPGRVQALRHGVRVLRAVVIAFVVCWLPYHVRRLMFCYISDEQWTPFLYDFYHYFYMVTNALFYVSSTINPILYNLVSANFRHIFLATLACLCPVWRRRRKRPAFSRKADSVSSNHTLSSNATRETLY
Sequence of UniProt P51812 (whole entry, unmodified, looked up): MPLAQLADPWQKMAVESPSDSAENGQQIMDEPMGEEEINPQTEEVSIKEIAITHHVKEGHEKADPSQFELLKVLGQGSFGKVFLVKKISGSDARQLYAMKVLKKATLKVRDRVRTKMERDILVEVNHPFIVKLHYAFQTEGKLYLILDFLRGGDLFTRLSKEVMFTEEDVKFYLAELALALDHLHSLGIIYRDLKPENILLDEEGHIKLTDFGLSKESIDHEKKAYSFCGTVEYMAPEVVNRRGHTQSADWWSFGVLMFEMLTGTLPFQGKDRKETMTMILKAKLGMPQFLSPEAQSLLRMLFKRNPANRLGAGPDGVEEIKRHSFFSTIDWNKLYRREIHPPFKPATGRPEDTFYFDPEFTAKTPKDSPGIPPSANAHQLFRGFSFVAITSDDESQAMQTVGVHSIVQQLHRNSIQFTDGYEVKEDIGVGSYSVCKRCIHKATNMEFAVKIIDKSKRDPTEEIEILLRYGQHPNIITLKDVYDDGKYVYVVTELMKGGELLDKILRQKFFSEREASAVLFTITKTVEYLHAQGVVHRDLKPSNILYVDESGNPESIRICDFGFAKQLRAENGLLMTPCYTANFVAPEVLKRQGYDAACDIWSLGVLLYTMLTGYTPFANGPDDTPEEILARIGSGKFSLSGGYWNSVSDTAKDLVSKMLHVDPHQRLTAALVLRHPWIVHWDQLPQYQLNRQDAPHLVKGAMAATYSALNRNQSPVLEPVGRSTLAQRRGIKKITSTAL
Sequence of UniProt P08170 (whole entry, looked up): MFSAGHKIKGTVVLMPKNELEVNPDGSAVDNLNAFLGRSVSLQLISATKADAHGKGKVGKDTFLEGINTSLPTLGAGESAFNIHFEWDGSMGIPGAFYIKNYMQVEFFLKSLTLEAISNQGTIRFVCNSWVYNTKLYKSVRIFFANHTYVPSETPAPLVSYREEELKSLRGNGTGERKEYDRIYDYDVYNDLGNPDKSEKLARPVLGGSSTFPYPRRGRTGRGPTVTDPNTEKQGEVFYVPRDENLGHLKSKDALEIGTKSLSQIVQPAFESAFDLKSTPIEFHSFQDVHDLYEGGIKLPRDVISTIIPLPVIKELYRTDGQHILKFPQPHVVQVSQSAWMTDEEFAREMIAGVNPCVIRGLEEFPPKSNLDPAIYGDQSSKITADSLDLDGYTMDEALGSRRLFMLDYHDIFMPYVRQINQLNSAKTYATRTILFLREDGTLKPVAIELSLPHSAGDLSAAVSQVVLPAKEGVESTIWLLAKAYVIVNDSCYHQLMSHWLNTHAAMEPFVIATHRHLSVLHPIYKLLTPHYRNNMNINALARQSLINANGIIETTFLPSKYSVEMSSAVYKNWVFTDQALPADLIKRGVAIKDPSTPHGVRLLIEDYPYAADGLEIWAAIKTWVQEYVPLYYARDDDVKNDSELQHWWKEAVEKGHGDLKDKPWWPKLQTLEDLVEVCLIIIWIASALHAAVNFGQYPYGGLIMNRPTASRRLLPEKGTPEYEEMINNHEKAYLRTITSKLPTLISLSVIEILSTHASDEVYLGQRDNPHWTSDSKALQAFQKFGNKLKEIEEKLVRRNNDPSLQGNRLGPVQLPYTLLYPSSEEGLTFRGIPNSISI
Sequence of UniProt P61073 (whole entry, looked up): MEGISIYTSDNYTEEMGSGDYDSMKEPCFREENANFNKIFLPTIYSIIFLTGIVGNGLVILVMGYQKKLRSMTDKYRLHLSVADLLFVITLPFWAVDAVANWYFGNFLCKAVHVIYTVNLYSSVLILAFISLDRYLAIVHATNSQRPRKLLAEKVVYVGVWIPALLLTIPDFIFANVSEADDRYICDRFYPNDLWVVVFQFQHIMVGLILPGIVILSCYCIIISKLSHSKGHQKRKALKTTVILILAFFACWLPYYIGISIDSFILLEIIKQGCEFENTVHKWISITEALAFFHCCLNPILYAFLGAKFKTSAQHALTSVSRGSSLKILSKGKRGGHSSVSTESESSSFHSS
Sequence of UniProt P23919 (whole entry, looked up): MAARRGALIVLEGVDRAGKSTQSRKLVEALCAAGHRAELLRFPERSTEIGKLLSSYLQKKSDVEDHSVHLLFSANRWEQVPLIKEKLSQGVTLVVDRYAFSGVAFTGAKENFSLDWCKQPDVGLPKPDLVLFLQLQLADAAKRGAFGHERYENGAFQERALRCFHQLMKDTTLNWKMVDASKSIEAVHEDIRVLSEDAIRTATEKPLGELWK
Sequence of UniProt Q9NS87 (whole entry, looked up): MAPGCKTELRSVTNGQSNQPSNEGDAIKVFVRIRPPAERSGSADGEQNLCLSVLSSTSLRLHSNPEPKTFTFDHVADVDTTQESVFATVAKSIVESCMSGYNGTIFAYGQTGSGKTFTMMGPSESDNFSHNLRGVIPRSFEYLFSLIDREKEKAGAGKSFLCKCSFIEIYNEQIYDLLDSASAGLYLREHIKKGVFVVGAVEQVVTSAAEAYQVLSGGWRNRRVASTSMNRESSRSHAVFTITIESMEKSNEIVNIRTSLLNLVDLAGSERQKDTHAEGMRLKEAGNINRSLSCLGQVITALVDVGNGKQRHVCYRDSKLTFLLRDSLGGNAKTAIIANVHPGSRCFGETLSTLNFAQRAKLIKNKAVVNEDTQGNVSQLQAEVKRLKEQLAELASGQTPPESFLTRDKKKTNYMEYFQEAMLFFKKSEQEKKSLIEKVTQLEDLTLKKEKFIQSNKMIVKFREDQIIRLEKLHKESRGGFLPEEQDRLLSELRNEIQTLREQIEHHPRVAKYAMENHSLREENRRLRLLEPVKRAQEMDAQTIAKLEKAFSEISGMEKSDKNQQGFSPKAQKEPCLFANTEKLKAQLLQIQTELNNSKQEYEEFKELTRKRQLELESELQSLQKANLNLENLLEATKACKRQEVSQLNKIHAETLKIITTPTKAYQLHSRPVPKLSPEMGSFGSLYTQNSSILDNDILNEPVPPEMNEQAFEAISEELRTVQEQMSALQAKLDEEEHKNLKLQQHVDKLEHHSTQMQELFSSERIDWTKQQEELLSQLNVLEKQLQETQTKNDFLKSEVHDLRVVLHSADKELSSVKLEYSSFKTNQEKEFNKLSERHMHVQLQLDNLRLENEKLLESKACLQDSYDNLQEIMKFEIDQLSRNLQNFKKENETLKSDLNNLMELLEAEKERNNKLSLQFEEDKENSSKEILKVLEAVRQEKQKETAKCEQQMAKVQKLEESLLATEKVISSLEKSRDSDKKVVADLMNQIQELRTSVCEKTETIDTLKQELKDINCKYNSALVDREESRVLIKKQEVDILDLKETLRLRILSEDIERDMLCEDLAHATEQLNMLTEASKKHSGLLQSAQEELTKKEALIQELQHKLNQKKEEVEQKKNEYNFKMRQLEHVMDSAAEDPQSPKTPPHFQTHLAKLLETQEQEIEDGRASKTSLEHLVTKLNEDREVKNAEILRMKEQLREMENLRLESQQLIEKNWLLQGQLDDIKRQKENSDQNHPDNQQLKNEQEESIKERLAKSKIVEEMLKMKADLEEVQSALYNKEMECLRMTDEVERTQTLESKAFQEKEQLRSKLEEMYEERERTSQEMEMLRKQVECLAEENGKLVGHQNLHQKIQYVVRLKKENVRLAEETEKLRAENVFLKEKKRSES
Sequence of UniProt P21761 (whole entry, looked up): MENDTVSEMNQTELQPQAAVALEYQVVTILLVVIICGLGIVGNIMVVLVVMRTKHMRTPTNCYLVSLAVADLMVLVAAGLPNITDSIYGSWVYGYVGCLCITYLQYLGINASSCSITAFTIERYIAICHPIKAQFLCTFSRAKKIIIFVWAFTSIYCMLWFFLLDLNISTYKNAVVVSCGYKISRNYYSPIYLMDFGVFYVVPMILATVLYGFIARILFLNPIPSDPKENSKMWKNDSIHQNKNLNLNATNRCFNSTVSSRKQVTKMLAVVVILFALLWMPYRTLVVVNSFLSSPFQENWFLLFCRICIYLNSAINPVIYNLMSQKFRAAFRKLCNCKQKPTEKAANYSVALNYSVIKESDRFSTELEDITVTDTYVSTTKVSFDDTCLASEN
Sequence of UniProt P24280 (whole entry, looked up): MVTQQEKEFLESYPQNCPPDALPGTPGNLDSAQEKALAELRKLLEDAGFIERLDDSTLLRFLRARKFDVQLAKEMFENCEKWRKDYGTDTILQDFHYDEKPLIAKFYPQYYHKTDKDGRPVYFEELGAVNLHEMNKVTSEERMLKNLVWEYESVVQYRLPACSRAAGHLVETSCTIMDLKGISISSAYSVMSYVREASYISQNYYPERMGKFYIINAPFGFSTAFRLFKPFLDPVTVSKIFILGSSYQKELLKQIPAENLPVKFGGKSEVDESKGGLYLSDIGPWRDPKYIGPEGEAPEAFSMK

O=C1N=C(O)SC1=Cc1ccc(-c2cccc(C(F)(F)F)c2)o1
IC50 (CD38; cyclase activity, fluorometric; with: NGD+ substrate): 20.8 µM

Cc1cc(O)cc(C)c1C[C@H](NC(=O)[C@@H]1CCCN1C(=O)[C@H](CCCNC(=N)N)NC(=O)[C@H](CCCNC(=N)N)N(C)C(=O)[C@@H]1CCCN1C(=O)[C@@H](CC(C)C)NC(=O)[C@@H](CC(C)C)NC(=O)[C@@H](CC(C)C)NC(=O)[C@@H](CC(C)C)NC(=O)[C@H](CCCCN)NC(=O)CN1CCN(CC(=O)O)CCN(CC(=O)O)CCN(CC(=O)O)CC1)C(=O)N[C@H](C(=O)N[C@@H](CC(C)C)C(=O)O)C(C)(C)C
IC50 (NTSR1; ligand displacement, radioligand; pH 7.4): 0.0486 µM

N=C(CF)NCCC[C@H](NC(=O)c1ccc(/N=N/c2ccccc2)cc1)c1nc2ccccc2[nH]1
IC50 (PADI2 (Homo sapiens, UniProt Q9Y2J8); inhibitor, competitive ABPP; 2 h, 37 °C, 30 min preincubation, with: RFA probe 2 µM): 11.8 µM

CC(=O)N[C@@H]1[C@@H](O)[C@@H](O)[C@H](Oc2c(-c3ccc(O)cc3)oc3cc(O)cc(O)c3c2=O)O[C@H]1CC(C)C
IC50 (RPS6KA3 (Homo sapiens, UniProt P51812); enzyme activity, inhibitor): 2.33 µM

Cc1c2c(cc3oc(=O)cc(-c4ccc(O)cc4)c13)C(=O)c1cccc(O)c1C2=O
IC50 (mushroom tyrosinase; enzyme activity; with: L-DOPA): > 100 µg/mL

CCc1ccccc1NC(=O)C(C)Sc1nnc(C2CCN(C(=O)Nc3ccccc3)CC2)n1CC (stereo not drawn)
IC50 (Seed linoleate 13S-lipoxygenase-1 (Glycine max, UniProt P08170); enzyme activity, inhibitor): < 16 µM and 15.5 µM

Cc1cn([C@@H]2C[C@@H](O)[C@H](COP(=O)(O)O)O2)c(=O)[nH]c1=O
IC50 (Thymidylate kinase (DTYMK, Homo sapiens, UniProt P23919); ligand displacement): 82 µM

COc1cc(O)c(C(=O)/C=C/c2ccccc2)c(O)c1OC
IC50 (DPP4 (Sus scrofa, UniProt P22411); enzyme activity, inhibitor, absorbance): > 166 µM

CNC(=O)C1CCN(c2cc(C)c(F)cc2NC(=O)c2ccc(-c3cc(O)ccc3C)c(C)c2)CC1
IC50 (YES1 (Homo sapiens, UniProt P07947); target engagement in cells, BRET): 8.66 µM

CC(=O)N[C@H]1[C@@H](OC(=O)NCCCOCCOCCOCCCNC(=O)O[C@H]2O[C@H](CNC(=O)OCCOCCOCCOCCOCCOCCOCCOCCOCCOCCOCCOCCOC(=O)NC[C@H]3O[C@H](OC(=O)NCCCOCCOCCOCCCNC(=O)O[C@H]4O[C@H](CO)[C@@H](O)[C@H](O)[C@H]4NC(C)=O)[C@H](NC(C)=O)[C@@H](O)[C@@H]3O)[C@@H](O)[C@H](O)[C@H]2NC(C)=O)O[C@H](CO)[C@@H](O)[C@@H]1O
IC50 (wheat germ agglutinin (Triticum vulgaris); binding to immobilised GlcNAc, inhibitor, enzyme-linked lectin; with: HRP-labelled WGA): 0.0074 µM

COc1cc(-c2nc3ccc(C(=O)NCCN4CCN(C5CCCCC5)CC4)cc3n2C2CCC2)cc(OC)c1OC
IC50 (ACVR1 (Homo sapiens, UniProt Q04771); target engagement in cells, BRET): 2.09 µM

Cn1cnc(C[C@H](NC(=O)C2CCCCN2)C(=O)N2CCC[C@H]2C(N)=O)c1 (stereo partly drawn)
IC50 (Thyrotropin-releasing hormone receptor (Mus musculus, UniProt P21761); ligand displacement, radioligand): > 50 µM

Cc1ccc(C(=O)N2CCN(c3ccc(F)cc3)CC2)cc1
IC50 (SEC14 (Saccharomyces cerevisiae, UniProt P24280); enzyme activity, inhibitor, radiometric): 22 µM

CCc1nc2sc(C(=O)c3ccc(C(C)C)cc3)c(N)c2c2c1CCCC2
IC50 (CD38; enzyme activity, inhibitor, fluorescence): 36.3 µM

O=C1Nc2ccc(-c3ccc4cc(O)ccc4c3)cc2/C1=C/c1ccc(N2CCNCC2)cc1
IC50 (FGFR4 (Homo sapiens, UniProt P22455); enzyme activity, inhibitor): 13.6 µM

COc1ccc(SCC2CCN(C(=O)Cc3ccc(S(=O)(=O)C(C)C)cc3)CC2)cc1
IC50 (KCNU1 (Homo sapiens, UniProt A8MYU2); ion current, inhibitor, patch clamp): 1.29 µM

CN(C)c1ccc2c(c1)C(=O)N(CCS)C2=O
IC50 (Metallo-beta-lactamase type 2 (Serratia marcescens, UniProt P52699); enzyme activity, inhibitor; pH 7.0, with: chromacef 25 µM): 0.47 ± 0.04 µM

N#C/C(=C\c1ccc(C(N)=O)cc1)C(N)=O
IC50 (Ribosomal protein S6 kinase alpha-3, C-terminal kinase domain (RPS6KA3, Homo sapiens, UniProt P51812, T493M); kinase activity, inhibitor; with: 0.1 mM ATP): 5.2 µM

CC(=O)NCCN(CCC(=O)NCCN(CCC(=O)NCCN(CCC(=O)NCCC(N)=O)C(=O)[C@@H](N)Cc1ccccc1)C(=O)[C@@H](N)Cc1ccccc1)C(=O)[C@@H](N)CCCNC(=N)N
IC50 (HIV-1 TAR RNA; Tat/TAR complex displacement, FRET; room temperature, with: 10 nM Tat/TAR complex): 66.6 ± 0.7 µM

Nc1ncc(-c2cnn(C3CCNCC3)c2)cc1-c1nc2ccc(Cl)c(F)c2o1
IC50 (JAK2 (Homo sapiens, UniProt O60674); enzyme activity, inhibitor, TR-FRET): 4.2 µM

CC(C)NCc1ccc(C[C@@H]2NC(=O)[C@@H](Cc3c[nH]c4ccccc34)NC(=O)[C@H](Cc3ccccc3)NC(=O)[C@@H](NC(=O)[C@H](N)Cc3ccccc3)CSSC[C@@H](C(=O)N[C@H](C(N)=O)[C@@H](C)O)NC(=O)[C@H](Cc3ccc(O)c(I)c3)NC2=O)cc1
IC50 (SSTR3 (Homo sapiens, UniProt P32745); ligand displacement, radioligand; cell membranes): 0.864 µM

FC(F)(F)c1csc(Nc2ccc(Cl)c(Cl)c2)n1
IC50 (Kinesin-like protein KIF15 (Homo sapiens, UniProt Q9NS87); ATPase activity, inhibitor): 20.9 µM

Cc1cc(O)cc(C)c1C[C@H](NC(=O)[C@@H]1CCCN1C(=O)[C@H](CCCNC(=N)N)NC(=O)[C@H](CCCNC(=N)N)N(C)C(=O)[C@@H]1CCCN1C(=O)[C@H](CCCCN)NC(=O)CN1CCN(CC(=O)O)CCN(CC(=O)O)CCN(CC(=O)O)CC1)C(=O)N[C@H](C(=O)N[C@@H](CC(C)C)C(=O)O)C(C)(C)C
IC50 (NTSR1; ligand displacement, radioligand): 0.0472 µM

CC(=O)[O][Cu+].CN1CCN2CCN(CC1)CCN(Cc1ccccc1)CC2
IC50 (CXCR4 (Homo sapiens, UniProt P61073); ligand displacement, flow cytometry): 0.0264 µM

For quick reference, copied from above:
N#C/C(=C\c1ccc(C(N)=O)cc1)C(N)=O
IC50 (Ribosomal protein S6 kinase alpha-3, C-terminal kinase domain (RPS6KA3, Homo sapiens, UniProt P51812, T493M); kinase activity, inhibitor; with: 0.1 mM ATP): 5.2 µM

CC(=O)[O][Cu+].CN1CCN2CCN(CC1)CCN(Cc1ccccc1)CC2
IC50 (CXCR4 (Homo sapiens, UniProt P61073); ligand displacement, flow cytometry): 0.0264 µM

COc1ccc(SCC2CCN(C(=O)Cc3ccc(S(=O)(=O)C(C)C)cc3)CC2)cc1
IC50 (KCNU1 (Homo sapiens, UniProt A8MYU2); ion current, inhibitor, patch clamp): 1.29 µM

Cn1cnc(C[C@H](NC(=O)C2CCCCN2)C(=O)N2CCC[C@H]2C(N)=O)c1 (stereo partly drawn)
IC50 (Thyrotropin-releasing hormone receptor (Mus musculus, UniProt P21761); ligand displacement, radioligand): > 50 µM
